Assay results from different studies.
Lines come from different studies, so protocols differ. ± marks the error that the study gave.
B1: enzyme (Treponema denticola, UniProt Q73LY9); chain QTNGTMPKRKFVIAFHASVNTDKTGKNLIKELPDLQKRGINTLFLEIGYNYQWKSDPKLYNKYVLSETVAREIAAECRRLSIDLIPEINCLGHQSWENETFALLKAYPELDETPGLYPSNKDIYCRSLCSSNEKVYTILFGLIDEITEVFSVKKIHVGLDEVFLIGEDACPLCRGKDKAELFAGAVNRLYDHCVKKRGFTMYMWGDRLIDSEDEDSGYKGEYESSCNGTYPAVDLIPKDIIICDWHYDELERYGSIPYFLNKGFRVLPTSFKGIKAVNALIDYSLLYKDNPAMLGHMYTAWDNFTNKNLSRYKPMVKTIDKLKAGN
B2: DHRS13 (Homo sapiens, UniProt Q6UX07); chain MEALLLGAGLLLGAYVLVYYNLVKAPPCGGMGNLRGRTAVVTGANSGIGKMTALELARRGARVVLACRSQERGEAAAFDLRQESGNNEVIFMALDLASLASVRAFATAFLSSEPRLDILIHNAGISSCGRTREAFNLLLRVNHIGPFLLTHLLLPCLKACAPSRVVVVASAAHCRGRLDFKRLDRPVVGWRQELRAYADTKLANVLFARELANQLEATGVTCYAAHPGPVNSELFLRHVPGWLRPLLRPLAWLVLRAPRGGAQTPLYCALQEGIEPLSGRYFANCHVEEVPPAARDDRAAHRLWEASKRLAGLGPGEDAEPDEDPQSEDSEAPSSLSTPHPEEPTVSQPYPSPQSSPDLSKMTHRIQAKVEPEIQLS
B3: enzyme A167S/Y136L (Bradyrhizobium diazoefficiens, UniProt Q45222); chain MIQTERAVQQVLEWGRSLTGFADEHAVEAVRGGQYILQRIHPSLRGTSARTGRDPQDETLIVTFYRELALLFWLDDCNDLGLISPEQLAAVEQALGQGVPCALPGFEGCAVLRASLATLAYDRRDYAQLLDDTRCLSAALRAGHAQAVAAERWSYAEYLHNGIDSISYANVFCCLSLLWGLDMATLRARPAFRQVLRLISAIGRLQNDLHGCDKDRSAGEADNAVILLLQRYPAMPVVEFLNDELAGHTRMLHRVMAEERFPAPWGPLIEAMAAIRVQYYRTSTSRYRSDAVRGGQRAPA
B4: enzyme (Roseiflexus castenholzii, UniProt A7NLX0); chain MKIESITLHHIDMPLVAPFETSFGRETHRPCILIEMRADGLTGWGECVAGAGPWYAYETIGTAWHIISDFLAPMIVGQEITEPIGIVERFASVRGHPMARAAVEAAFWDLYAQARGVSLARLIGATRDRVTVGVSVGIELTLEAQLASIERFVAAGYARIKLKIKPGWDVAVVRAVRERWPDIALQVDANSAYTPDDAPIFRELDEMNLLLIEQPLHHDDIVDHARLQAQISTPICLDESIHSPEHARWALDIDACRVINIKIGRVGGLTAARQIHDLCAERGVPVWCGGMLETNVGRAVNLALAALPNFALPGDISASARYYHRDIAAPDFVLNDDSTITVPDTPGTGVAVLPERLRDVQVREVIIGKG
B5: enzyme (Trypanosoma brucei, UniProt Q9GV41); chain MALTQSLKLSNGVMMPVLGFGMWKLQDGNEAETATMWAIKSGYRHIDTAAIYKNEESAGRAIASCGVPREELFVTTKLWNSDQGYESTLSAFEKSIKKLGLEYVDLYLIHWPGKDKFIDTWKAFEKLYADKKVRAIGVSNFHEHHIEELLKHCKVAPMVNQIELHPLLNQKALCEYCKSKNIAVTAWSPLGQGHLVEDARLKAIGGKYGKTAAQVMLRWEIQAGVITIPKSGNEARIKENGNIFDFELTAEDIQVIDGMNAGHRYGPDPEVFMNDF
B6: enzyme (UniProt A0A097IUE6); chain TKRAMMATVSSLGIDKATGITKPSKVHRNLPYPEVFEHEQKNKEGEVTKNGTFCVSTGAFTGRSPKDKYFVHQSPSCDTLDWGKINVGVAPDVYKNIYEKAVKHYNENVDSMYVFDGYCGTSPKSRKNVRIITELAWQHHFAKNMFIRPDSEKEVENFNPDFTIINACKVLNKDYKELGLNSDVAVIFNVEEKMAVITGTWYGGEMKKGIFSMMNYWLPLDGIMAMHCSANKGKGGDTALFFGLSGTGKTTLSADPDRYLIGDDEHGWDDHGIFNFEGGCYAKTVNLSKDNEPEIYDAIKRDALLENVIIKSDGEPDYTDTSRTENTRVSYPIYHIDNHEPSGMGGHPTSIIFLTCDAFGVLPPVSRLSGGQAMYHFLSGYTAKVAGTERGVTEPTPNFSACFGAAFLTLHPTKYADLLQKKLDKHQTQCFLINTGWTGGGYGVGKRMSIKATRACVNAVLDGSINKANFTNDEVFGFEVPAELPEVPAQVLNPRAAWSDKEKYDNTRIKLAGMFKDNFKKFIKEGATDYSSYGPK
B7: enzyme H459A (Methanosarcina mazei, UniProt Q8PVB1); chain MSEQRSVPLREHLLALKPCRHGGLIQETSETYGIPENEILDFSANFNPLGSPFDYPENGLNFEDIIKKSCGKLLEYPDNRYVEFREAAARFVGLGVTPQSIVPGNGSTEIVRLVVESVIEKGDKVLLPWPTFGEYEMQCRITGAEPVCPSQEEVNTLPDEVLEEAKILFICNPNNPTGKLRTREELKVLAERCREHKTLLYVDEAFIELSDPSQSVADLPAENNYVFVMRSLTKDFAIPGIRMGFGIAPPAMADILNTARLSWNLGAIANNTGIALLNIEGGIDSPYLKKAREMILKEGETLKAKIDRIRGFEAGEVNVNFILVDVSKFMLNSSELTARLAARGVLVRDCVSFHGLGKNYIRVAVRTEKENDRLIAAIGDVITEWGREQAKNELQHVIEKASEEGIGGRKTCEYYPCHFEGQNCTFCFCPFYPCENEKTGGKWIQSSRGGRVWSCVDCALVHKKEIAQKILDCLMHEGDTDELVKVAWKEVMEPIL
UniProt P09546, sequence (whole entry, looked up): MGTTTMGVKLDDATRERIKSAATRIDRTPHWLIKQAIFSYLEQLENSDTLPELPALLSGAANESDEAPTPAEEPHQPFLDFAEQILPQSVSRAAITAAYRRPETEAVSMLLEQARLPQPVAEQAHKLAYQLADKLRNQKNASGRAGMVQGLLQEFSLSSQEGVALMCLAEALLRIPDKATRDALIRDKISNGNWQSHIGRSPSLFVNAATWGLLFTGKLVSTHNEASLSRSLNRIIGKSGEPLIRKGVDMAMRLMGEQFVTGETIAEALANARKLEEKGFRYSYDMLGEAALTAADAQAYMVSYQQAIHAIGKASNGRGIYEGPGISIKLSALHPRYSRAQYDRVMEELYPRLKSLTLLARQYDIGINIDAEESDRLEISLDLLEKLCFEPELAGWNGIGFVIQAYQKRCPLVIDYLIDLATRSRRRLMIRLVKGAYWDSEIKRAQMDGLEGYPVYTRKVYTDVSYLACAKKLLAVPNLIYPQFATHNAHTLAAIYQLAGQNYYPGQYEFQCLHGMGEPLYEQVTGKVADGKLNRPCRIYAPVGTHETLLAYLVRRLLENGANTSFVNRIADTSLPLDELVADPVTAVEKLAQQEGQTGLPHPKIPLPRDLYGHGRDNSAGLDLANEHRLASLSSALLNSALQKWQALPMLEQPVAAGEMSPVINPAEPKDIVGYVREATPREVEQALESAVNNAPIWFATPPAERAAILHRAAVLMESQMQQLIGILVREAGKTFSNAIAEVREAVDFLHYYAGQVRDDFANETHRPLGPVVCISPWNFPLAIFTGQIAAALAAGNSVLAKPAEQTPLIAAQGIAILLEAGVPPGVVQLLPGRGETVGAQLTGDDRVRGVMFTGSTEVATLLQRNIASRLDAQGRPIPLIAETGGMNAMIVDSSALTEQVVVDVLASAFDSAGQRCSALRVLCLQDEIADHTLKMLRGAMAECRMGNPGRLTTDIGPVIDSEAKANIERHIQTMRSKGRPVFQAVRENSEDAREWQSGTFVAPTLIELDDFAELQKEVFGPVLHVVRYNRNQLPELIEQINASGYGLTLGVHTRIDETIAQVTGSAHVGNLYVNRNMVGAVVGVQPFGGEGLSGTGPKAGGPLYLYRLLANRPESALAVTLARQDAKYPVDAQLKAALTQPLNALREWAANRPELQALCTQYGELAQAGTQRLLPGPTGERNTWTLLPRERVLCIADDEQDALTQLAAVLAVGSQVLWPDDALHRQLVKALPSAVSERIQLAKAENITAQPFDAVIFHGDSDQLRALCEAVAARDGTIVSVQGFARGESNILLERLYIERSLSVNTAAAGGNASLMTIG
UniProt A0A348FUE1, sequence (whole entry, looked up): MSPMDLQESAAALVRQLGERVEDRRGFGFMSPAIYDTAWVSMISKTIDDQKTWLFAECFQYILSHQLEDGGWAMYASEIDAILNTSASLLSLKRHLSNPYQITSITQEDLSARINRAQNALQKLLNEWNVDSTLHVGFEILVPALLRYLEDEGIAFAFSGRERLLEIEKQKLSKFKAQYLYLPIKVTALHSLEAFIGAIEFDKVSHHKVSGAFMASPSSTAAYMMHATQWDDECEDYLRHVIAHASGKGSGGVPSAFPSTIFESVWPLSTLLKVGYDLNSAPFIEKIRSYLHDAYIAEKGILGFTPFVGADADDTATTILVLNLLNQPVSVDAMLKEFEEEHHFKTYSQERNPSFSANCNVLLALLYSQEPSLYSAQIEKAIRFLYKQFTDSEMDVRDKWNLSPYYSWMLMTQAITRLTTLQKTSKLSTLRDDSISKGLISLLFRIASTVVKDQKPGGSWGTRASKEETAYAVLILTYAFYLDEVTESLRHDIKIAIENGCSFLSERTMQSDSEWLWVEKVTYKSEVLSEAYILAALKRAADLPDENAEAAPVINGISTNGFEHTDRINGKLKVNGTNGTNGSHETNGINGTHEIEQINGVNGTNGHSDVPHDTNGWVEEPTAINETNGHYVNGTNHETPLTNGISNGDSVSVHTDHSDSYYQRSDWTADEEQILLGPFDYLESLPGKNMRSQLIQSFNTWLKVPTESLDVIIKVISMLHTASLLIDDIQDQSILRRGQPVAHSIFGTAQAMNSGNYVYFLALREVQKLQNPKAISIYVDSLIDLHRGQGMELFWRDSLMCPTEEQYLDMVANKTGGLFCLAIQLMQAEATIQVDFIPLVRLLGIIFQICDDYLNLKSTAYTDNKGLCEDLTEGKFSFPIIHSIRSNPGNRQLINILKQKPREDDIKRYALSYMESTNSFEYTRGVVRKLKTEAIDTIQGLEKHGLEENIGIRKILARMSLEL

insulin aspart  AUC(0-t) (ELISA after PEG precipitation, measured: free insulin aspart; human, type 1 diabetes, serum; subcutaneous, dose not given, least squares mean): 0.72 nM·h
putA (Escherichia coli, UniProt P09546)  Km (CC1=C(C)C(=O)C(C)=C(C)C1=O; steady-state kinetics; pH 7.4, 20 °C, with: proline 200 mM): 147 µM
enzyme (UniProt Q83XK4)  Km (NC(=O)C1=CN([C@@H]2O[C@H](COP(=O)(O)OP(=O)(O)OC[C@H]3O[C@@H](n4cnc5c(N)ncnc54)[C@H](OP(=O)(O)O)[C@@H]3O)[C@@H](O)[C@H]2O)C=CC1; steady-state kinetics; pH 7, 30 °C, cofactor varied): 25.9 µM
Ubiquitin fragment (Homo sapiens)  pKa (NMR, measured: Lys11): 11.2
B1 (enzyme)  Km (CC(=O)N[C@H]1[C@H](Oc2ccc([N+](=O)[O-])cc2)O[C@H](CO)[C@@H](O[C@@H]2O[C@H](CO)[C@H](O)[C@H](O)[C@H]2O)[C@@H]1O; steady-state kinetics; pH 6, 40 °C): 2080 µM
enzyme (Talaromyces verruculosus, UniProt A0A348FUE1)  Km (CC(C)=CCOP(=O)(O)OP(=O)(O)O; steady-state kinetics; pH 7.5, apparent, with: 150 µM IPP): 190 µM
B2 (DHRS13)  Km (CC1=C(/C=C/C(C)=C/C=C/C(C)=C/C=O)C(C)(C)CCC1; steady-state kinetics; pH 7.4, 37 °C): 66.7 µM
B3 (enzyme A167S/Y136L)  Km (C=C1CC[C@@H]2C(C)(C)CCC[C@@]2(C)[C@@H]1CC/C(C)=C/COP(=O)(O)OP(=O)(O)O; steady-state kinetics): 3.74 µM
B4 (enzyme)  Km (O=C(O)CCC(=O)C1=CC=C[C@@H](O)[C@@H]1C(=O)O; steady-state kinetics; pH 8, 25 °C): 120 µM
VMRLQSETSV  binding intensity (human MAGI1-2/6 PDZ construct (MBP fusion); automated holdup; peptide, crude extract; concentration not given, uncorrected, unit not given; relative to: biotin control resin, higher = stronger binding): 0.488
insulin degludec  AUC0−∞ (human; subcutaneous, 0.4 IU/kg, 3 FC level, single dose, reference formulation): 630 ± 79 ng·h/mL
ACEQNPIYWARYADWLFTTPLLLLDLALLVDADEGT  contrast index (ex vivo fluorescence imaging; peptide, BALB/c mice, 4T1 tumour-bearing; intravenous, 5 nmol, 2 h post-injection, background-corrected mean fluorescence; relative to: tumour over muscle): 4.1 ± 0.9
B5 (enzyme)  Km (NC(=O)C1=CN([C@@H]2O[C@H](COP(=O)(O)OP(=O)(O)OC[C@H]3O[C@@H](n4cnc5c(N)ncnc54)[C@H](OP(=O)(O)O)[C@@H]3O)[C@@H](O)[C@H]2O)C=CC1; steady-state kinetics; pH 7, 37 °C, cofactor varied): 5.7 µM
B6 (enzyme)  Km (O=C(O)CC(=O)C(=O)O; steady-state kinetics; pH 7.5, 25 °C): 180 µM
B7 (enzyme H459A)  Km (Nc1ncnc2c1ncn2[C@@H]1O[C@H](COP(=O)(O)OP(=O)(O)OP(=O)(O)O)[C@@H](O)[C@H]1O; steady-state kinetics; pH 8.5, 25 °C, apparent, anoxic, with: L-Thr 10 mM): 90 µM
